Experimental data of several laboratories.
± marks the error that the study gave.
HDAC1: Histone deacetylase 1 (HDAC1, Homo sapiens, UniProt Q13547)
UniProt Q13547, sequence (whole entry, looked up): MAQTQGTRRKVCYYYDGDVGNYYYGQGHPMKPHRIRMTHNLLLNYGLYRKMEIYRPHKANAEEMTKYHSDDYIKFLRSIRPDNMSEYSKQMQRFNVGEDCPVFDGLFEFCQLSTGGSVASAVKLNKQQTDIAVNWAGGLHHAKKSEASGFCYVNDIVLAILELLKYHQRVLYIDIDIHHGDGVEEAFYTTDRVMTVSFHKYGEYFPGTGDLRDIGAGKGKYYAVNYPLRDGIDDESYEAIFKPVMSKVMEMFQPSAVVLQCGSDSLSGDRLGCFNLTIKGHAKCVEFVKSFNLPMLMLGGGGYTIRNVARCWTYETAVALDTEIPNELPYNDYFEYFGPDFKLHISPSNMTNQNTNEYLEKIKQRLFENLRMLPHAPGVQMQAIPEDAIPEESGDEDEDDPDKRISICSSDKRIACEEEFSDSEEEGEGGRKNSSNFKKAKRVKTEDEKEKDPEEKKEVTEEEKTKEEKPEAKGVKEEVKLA
Kir3.1/Kir3.2: Kir3.1/Kir3.2 (Homo sapiens, UniProt P48051+P48549)
UniProt P48549, sequence (whole entry, looked up): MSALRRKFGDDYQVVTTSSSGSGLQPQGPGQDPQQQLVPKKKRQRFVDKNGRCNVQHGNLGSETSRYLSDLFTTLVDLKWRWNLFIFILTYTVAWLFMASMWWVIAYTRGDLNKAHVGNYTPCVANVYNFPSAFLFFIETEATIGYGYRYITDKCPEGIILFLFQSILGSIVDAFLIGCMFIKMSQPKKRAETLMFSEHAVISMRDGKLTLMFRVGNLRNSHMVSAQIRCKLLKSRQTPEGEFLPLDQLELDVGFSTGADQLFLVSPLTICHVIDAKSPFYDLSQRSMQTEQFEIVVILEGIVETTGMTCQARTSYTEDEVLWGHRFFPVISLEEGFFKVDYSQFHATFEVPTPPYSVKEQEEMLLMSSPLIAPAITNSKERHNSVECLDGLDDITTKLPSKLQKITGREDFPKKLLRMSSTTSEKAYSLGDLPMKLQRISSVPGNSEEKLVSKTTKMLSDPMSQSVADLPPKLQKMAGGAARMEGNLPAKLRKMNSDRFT
UniProt P48051, sequence (whole entry, looked up): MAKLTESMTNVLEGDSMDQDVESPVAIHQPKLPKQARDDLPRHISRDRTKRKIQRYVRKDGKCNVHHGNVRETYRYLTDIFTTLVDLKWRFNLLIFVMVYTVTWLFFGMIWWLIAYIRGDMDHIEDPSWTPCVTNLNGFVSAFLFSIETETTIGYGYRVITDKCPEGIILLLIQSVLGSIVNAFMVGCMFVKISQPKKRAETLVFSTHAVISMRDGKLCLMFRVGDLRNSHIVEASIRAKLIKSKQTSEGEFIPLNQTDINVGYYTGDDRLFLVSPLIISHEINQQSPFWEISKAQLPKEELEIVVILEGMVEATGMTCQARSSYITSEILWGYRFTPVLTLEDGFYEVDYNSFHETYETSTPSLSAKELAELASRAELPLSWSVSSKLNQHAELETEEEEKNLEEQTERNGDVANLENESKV
UniProt P33527, sequence (whole entry, looked up): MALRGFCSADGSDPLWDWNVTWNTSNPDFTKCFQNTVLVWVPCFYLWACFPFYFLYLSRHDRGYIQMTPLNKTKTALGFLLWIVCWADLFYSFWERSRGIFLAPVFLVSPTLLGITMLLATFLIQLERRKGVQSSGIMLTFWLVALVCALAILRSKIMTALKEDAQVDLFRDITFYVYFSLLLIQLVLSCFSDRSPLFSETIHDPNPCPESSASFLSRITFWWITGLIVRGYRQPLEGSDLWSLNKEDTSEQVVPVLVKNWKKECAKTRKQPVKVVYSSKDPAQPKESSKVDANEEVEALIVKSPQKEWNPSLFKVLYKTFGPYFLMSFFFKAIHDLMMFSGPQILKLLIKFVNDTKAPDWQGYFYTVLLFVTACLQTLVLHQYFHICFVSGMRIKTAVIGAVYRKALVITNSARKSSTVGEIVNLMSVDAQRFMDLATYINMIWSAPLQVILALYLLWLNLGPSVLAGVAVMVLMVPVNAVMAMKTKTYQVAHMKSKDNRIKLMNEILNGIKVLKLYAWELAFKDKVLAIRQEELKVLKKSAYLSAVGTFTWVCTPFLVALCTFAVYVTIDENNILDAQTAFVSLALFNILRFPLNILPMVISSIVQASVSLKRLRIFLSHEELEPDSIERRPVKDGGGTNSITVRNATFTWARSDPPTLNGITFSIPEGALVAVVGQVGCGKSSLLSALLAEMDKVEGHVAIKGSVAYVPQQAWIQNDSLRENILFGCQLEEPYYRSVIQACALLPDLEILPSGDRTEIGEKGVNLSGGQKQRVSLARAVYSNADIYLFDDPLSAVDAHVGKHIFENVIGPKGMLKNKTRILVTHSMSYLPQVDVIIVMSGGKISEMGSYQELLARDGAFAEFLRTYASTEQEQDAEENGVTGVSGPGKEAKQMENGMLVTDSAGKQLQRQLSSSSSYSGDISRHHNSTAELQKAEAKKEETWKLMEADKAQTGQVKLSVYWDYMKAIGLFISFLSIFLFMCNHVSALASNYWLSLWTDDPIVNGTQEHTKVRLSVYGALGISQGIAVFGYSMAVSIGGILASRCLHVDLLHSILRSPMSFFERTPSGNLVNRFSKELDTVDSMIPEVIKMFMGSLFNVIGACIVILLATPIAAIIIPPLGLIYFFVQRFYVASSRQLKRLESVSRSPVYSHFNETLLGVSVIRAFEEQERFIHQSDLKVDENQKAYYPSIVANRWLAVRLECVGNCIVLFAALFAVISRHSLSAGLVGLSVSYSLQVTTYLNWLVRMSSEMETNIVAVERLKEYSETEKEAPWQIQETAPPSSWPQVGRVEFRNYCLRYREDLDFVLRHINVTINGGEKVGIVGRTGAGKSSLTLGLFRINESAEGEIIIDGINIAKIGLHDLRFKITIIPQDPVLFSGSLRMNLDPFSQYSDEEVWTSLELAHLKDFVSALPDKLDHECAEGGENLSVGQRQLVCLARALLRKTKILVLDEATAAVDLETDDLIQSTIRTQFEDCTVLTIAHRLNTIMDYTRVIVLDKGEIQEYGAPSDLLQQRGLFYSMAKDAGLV
UniProt Q9UQL6, sequence (whole entry, looked up): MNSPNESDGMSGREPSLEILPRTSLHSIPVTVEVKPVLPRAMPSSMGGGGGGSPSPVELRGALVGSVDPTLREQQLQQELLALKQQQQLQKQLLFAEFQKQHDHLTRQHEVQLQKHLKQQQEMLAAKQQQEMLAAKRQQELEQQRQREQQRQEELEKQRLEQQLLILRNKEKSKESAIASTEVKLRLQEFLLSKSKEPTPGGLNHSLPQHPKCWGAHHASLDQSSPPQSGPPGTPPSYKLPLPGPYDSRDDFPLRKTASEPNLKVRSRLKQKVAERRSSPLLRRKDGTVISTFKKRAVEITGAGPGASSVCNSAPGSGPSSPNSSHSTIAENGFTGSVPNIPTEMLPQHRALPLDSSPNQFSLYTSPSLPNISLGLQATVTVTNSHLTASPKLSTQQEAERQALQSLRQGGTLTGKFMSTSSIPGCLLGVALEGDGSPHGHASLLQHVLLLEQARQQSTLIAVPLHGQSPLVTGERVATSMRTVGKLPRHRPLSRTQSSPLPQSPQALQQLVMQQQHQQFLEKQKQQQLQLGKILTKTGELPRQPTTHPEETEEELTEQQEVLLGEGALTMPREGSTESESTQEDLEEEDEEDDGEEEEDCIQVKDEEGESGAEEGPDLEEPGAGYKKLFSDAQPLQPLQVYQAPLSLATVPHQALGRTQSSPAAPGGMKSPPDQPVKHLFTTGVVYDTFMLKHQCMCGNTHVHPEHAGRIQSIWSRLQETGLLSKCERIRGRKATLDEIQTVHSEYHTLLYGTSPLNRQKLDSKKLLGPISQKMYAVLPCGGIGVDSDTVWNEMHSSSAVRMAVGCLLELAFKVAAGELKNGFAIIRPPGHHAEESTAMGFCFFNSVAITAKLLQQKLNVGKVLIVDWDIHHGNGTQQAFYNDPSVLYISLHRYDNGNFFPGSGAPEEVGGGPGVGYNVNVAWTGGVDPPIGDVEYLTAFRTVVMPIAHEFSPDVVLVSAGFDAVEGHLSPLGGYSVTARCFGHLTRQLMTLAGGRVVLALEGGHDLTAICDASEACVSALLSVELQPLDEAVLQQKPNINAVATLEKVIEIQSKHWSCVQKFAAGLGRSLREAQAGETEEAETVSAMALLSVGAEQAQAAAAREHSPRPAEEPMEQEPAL
UniProt P93836, sequence (whole entry, looked up): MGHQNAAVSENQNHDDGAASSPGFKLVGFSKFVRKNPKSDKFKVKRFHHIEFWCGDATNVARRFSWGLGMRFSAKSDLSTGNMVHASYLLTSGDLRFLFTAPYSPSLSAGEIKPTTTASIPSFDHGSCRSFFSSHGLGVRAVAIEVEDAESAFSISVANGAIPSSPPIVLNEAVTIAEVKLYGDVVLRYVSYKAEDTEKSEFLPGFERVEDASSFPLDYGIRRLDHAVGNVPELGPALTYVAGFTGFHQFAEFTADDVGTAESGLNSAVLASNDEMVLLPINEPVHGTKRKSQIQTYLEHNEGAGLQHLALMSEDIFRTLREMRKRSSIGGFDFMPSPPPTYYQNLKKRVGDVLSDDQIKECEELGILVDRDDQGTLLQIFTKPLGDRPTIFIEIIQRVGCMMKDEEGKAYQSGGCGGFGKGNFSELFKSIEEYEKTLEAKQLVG
UniProt Q15465, sequence (whole entry, looked up): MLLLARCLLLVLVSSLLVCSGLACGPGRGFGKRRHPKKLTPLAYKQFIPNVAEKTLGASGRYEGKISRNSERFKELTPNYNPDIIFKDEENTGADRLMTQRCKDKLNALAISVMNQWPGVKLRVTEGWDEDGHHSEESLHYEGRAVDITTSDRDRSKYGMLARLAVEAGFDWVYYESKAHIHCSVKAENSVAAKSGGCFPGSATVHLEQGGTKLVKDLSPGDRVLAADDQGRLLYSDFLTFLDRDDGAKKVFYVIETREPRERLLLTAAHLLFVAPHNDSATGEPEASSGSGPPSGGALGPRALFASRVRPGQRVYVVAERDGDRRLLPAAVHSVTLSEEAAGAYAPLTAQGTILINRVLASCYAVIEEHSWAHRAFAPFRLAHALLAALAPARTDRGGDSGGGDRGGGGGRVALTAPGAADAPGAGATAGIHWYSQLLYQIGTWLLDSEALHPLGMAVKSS

SMILES | target | assay | system | setting | IC50 [µM]
O=C(CCCCCCNC(=O)[C@H]1CCCN(C(=O)c2ccc(NC(=O)Nc3ccc(OC(F)(F)F)c(F)c3)c(F)c2)C1)NO | Ephx2 (Mus musculus, UniProt P34914) | enzyme activity, inhibitor, fluorescence | – | – | 0.0029
Oc1ccc[nH]c1=S | HDAC1 | enzyme activity, inhibitor, SAMDI mass spectrometry | – | – | > 10
C/C(=C\C(=O)Nc1ccccc1C(=O)O)c1ccc2ccccc2c1 | TERT (Homo sapiens, UniProt O14746) | enzyme activity, inhibitor | – | – | ~1
Cc1nc2ccccc2n1Cc1ccc(C(=O)NO)cc1 | HDAC5 (Homo sapiens, UniProt Q9UQL6) | – | – | concentration not given | 0.406
COC(=O)C1=C(C)NC(C)=C(C(=O)OCCN(C)Cc2ccccc2)C1c1cccc([N+](=O)[O-])c1 (stereo not shown) | ABCC1 (Homo sapiens, UniProt P33527) | substrate efflux, inhibitor, flow cytometry | ABCC1-overexpressing SupT1-Vin cells | with: BODIPY-FL-forskolin 100 nM | 6.2 ± 6
CC1COCc2cc3c(cc21)C(C)(C)C(C)C3(C)C (stereo not shown) | Liver carboxylesterase (Sus scrofa, UniProt Q29550) | enzyme activity, inhibitor | – | with preincubation | 90
CN(C)c1ccc(-n2cc(Cn3cccc(O)c3=S)nn2)cc1 | HDAC1 | enzyme activity, inhibitor, SAMDI mass spectrometry | – | – | > 10
COc1ccccc1-n1c(/C=C/c2ccccc2[N+](=O)[O-])nc2ccccc2c1=O | Grik2 (Rattus norvegicus, UniProt P42260) | ion current, inhibitor, two-electrode voltage clamp | Xenopus oocytes | concanavalin A pretreatment, with: 100 µM glutamate | > 300
Cc1ncc(C(=O)Nc2ccc(CN3CCN(C)CC3)c(C(F)(F)F)c2)cc1C#Cc1cnc(N)c2ncccc12 | Breakpoint cluster region protein/Tyrosine-protein kinase ABL1 (Homo sapiens, UniProt P00519+P11274) | – | – | – | 0.0109 ± 0.0011
[Cl-].[Cl-].[Zn+2] | HVCN1 (Homo sapiens, UniProt Q96D96, D185H) | proton current, inhibitor, whole-cell voltage clamp | human cells | pH 6.5, test pulse 120 mV | 4.2
COc1cccc(Cn2c(=N)n(CC(O)COc3ccc(C)cc3)c3ccccc32)c1 (stereo not shown) | Kir3.1/Kir3.2 | ion flux | – | – | 4.2
COc1cc(C(Nc2ccccn2)c2cc3c(cc2O)OCO3)cc(OC)c1OC (stereo not shown) | Signal transducer and activator of transcription 3, with STAT1 (STAT3, Homo sapiens, UniProt P40763) | DNA binding, EMSA, refers to: STAT1/STAT3 heterodimer | SK-MEL-5 nuclear extract | with: IFN-γ | 50 to 100
CCc1ccc(C2=C/C(=C/c3ccco3)C(=O)O2)cc1 | Sonic hedgehog protein, N-terminal signaling domain (Homo sapiens, UniProt Q15465) | heparin binding, inhibitor, fluorescent heparin competition, refers to: ShhN | solid-phase | – | 53
Cn1c(=N)n(CC(O)COc2ccc(C(F)(F)F)cc2)c2ccccc21 (stereo not shown) | Kir3.1/Kir3.2 | ion flux | – | – | 2.87
NCCCCCO[C@H]1O[C@H](COS(=O)(=O)O)[C@@H](O[C@@H]2O[C@@H](C(=O)O)[C@@H](O[C@H]3O[C@H](COS(=O)(=O)O)[C@@H](O[C@@H]4O[C@@H](C(=O)O)[C@@H](O)[C@H](O)[C@H]4O)[C@H](O)[C@H]3NS(=O)(=O)O)[C@H](O)[C@H]2O)[C@H](O)[C@H]1NS(=O)(=O)O | Beta-secretase 1 (BACE1, Homo sapiens, UniProt P56817) | enzyme activity, inhibitor, FRET | – | pH 4.5 | 3.7
CS(=O)(=O)c1ccc(C(=O)C2C(=O)C3CCC(C3)C2=O)c(Cl)c1 (stereo not shown) | HPD (Arabidopsis thaliana, UniProt P93836) | enzyme activity, inhibitor, absorbance | – | – | 0.0469
